Measurements gathered from unrelated publications.
A part holds a random share of what one study measured. Positions count from the first letter of the parent shown.

Study 1
Target: MAFF, bZIP domain (human)
Method: DHFR protein complementation
Medium: yeast
Notes: single substitutions, most at no-binding floor
Reference: wild-type JUN-FOS pair
Direction: higher = stronger binding
Starting sequence: JUN, bZIP domain (human); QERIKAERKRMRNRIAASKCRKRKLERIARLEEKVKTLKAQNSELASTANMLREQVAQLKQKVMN; partner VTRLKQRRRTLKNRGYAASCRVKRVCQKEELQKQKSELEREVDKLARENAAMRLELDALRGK
For `V56S`, the binding fitness was -1.52 natural log.
`S47T` gave a binding fitness of -1.3 natural log.
With `N42I` the binding fitness was -1.31 natural log.
With `K39F` the binding fitness was -1.48 natural log.
With `A49W` the binding fitness was -1.48 natural log.
`K34S` gave a binding fitness of -1.51 natural log.
`A46R` gave a binding fitness of -1.37 natural log.
`L31T` gave a binding fitness of -1.4 natural log.
With `N42K` the binding fitness was -0.477 natural log.
The binding fitness of `A29N` is reported as -1.36 natural log.
For `L52D`, the binding fitness was -1.51 natural log.
With `K39Y` the binding fitness was -1.53 natural log.
For `E33V`, the binding fitness was -1.22 natural log.
For `M51K`, the binding fitness was -1.23 natural log.
For `Q58P`, the binding fitness was -1.41 natural log.
For `S47M`, the binding fitness was -1.35 natural log.
The binding fitness of `A29M` is reported as -1.44 natural log.
With `M51V` the binding fitness was -1.37 natural log.
With `E44Q` the binding fitness was -1.39 natural log.

Study 2
Target: Phosphate system positive regulatory protein PHO4, full length, GST-tagged (PHO4, Saccharomyces cerevisiae, UniProt P07270, residues 1-312)
Method: competition protein-binding microarray
Form: double-stranded DNA, one strand shown
Medium: in vitro
Tested at: 2 µM
Notes: whole 60-bp probe, lowest competitor level
Added: Cbf1 competitor, 0.05 µM
Direction: higher = stronger binding
Construct (chain): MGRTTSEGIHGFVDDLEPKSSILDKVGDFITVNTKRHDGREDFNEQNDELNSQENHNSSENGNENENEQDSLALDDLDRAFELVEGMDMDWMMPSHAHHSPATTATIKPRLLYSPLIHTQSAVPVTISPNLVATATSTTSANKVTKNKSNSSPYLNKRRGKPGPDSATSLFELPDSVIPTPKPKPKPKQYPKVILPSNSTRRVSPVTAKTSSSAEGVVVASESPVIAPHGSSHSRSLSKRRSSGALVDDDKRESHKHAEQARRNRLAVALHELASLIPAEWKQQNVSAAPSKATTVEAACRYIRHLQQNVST
The fluorescence intensity of `CTAACGAAGGTTTGTCGGGTGGGTGACAAGCCAAGTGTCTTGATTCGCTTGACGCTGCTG` is reported as 3870 a.u.
`CTTTCCCGATCTTGGTCGGTGGGTGTAGCACATTTGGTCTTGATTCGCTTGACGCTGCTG` has a fluorescence intensity of 4060 a.u.
With `TAACTACCGCCCTAGTTCGTGCTTTCATTTTTTTGTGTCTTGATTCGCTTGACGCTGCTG` the fluorescence intensity was 6360 a.u.
`CTAACGAAGGTTTGGATCGTGGGTGACAAGCCAAGTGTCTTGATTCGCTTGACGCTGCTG` has a fluorescence intensity of 7960 a.u.
For `TCAGGATCTGGCTGGCACATGATGCGGAAGCAGCGGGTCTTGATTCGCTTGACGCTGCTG`, the fluorescence intensity was 8770 a.u.
For `TCAAAAAAGCCAAAAAGGGTGTGCCTGTAGATTGTGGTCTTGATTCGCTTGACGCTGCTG`, the fluorescence intensity was 6690 a.u.
`TTTGTGCAGCACAATCACCTGTGGTTACTGGAGAATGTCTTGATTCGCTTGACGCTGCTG` gave a fluorescence intensity of 5560 a.u.
The fluorescence intensity of `CTAACGAAGGTTTGTGGGGTGGGTGACAAGCCAAGTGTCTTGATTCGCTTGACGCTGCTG` is reported as 4820 a.u.
`CTAACGAAGGTTTGCTGGGTGGGTGACAAGCCAAGTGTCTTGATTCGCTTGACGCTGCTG` gave a fluorescence intensity of 3940 a.u.
For `ATGGCTATACCGAGTCACGTTTAGGTAATTTGTTTGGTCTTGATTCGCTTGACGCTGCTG`, the fluorescence intensity was 8980 a.u.
For `AAATTACTAAGTTGTCACCCCACTTACCCCGTATGAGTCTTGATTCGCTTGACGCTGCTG`, the fluorescence intensity was 4270 a.u.
`TCACCCTCTCCGACTCACGTGGACCTTGGCGCGGCCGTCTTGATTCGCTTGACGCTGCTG` has a fluorescence intensity of 15700 a.u.
For `CTTTCCCGATCTTGTCACCAAACTTTAGCACATTTGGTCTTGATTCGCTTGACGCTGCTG`, the fluorescence intensity was 3630 a.u.
For `CGGGGTTAAGTTTGTCACTTAACTTGCTTGCAGCAGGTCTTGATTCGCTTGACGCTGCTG`, the fluorescence intensity was 3210 a.u.
With `CTTCTGTAAATTTTTCACGTGAAGTGAAGCGCCCCGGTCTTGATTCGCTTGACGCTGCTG` the fluorescence intensity was 7910 a.u.
`TTGTGGCAATCCGACCACGTCTTGTCTTCTTAACTTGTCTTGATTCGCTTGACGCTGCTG` has a fluorescence intensity of 6330 a.u.
`CTTTCCCGATCTTGGGGGGTGGGTGTAGCACATTTGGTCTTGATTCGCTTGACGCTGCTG` has a fluorescence intensity of 6420 a.u.
`CAACTTGATGGTCTACACGTTGTTTCAAGTGCATACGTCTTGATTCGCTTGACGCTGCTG` gave a fluorescence intensity of 11300 a.u.
The fluorescence intensity of `GTATCTCATCGCTGGCACGGGCAGTACAGTGCCCTGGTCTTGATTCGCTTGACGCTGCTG` is reported as 9690 a.u.
The fluorescence intensity of `CAATTTGAAGTCCGTCACGGGAGGCAGTTGTTTGGTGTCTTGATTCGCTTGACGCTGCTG` is reported as 5310 a.u.
For `TGCGCAACAACTTGTTACGTGGGTGTATGTCTAGAAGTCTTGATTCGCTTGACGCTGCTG`, the fluorescence intensity was 6650 a.u.
For `CAAGATAGGGAGAGCCACGTGATAGACTGGGGAGAGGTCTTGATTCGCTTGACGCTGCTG`, the fluorescence intensity was 17700 a.u.
`CTTCTGTAAATTTTTCACGTGTGATGACGCGCCCCGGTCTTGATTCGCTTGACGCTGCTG` gave a fluorescence intensity of 11700 a.u.
`CGGGGTTAAGTTTGTGCTGTGGGTGGCTTGCAGCAGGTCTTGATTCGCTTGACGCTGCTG` has a fluorescence intensity of 5250 a.u.

Study 3
Target: CCNB1, cyclin fold, Cln2 fusion (human)
Method: yeast growth competition, sequencing
Medium: yeast
Notes: weak parent motif
Reference: not given
Direction: higher = stronger binding
Starting sequence: LLGL2 docking peptide (human); KSLKKSLRQSFRR
`S6A`: “normalised enrichment score” -0.165.
`L7A`: “normalised enrichment score” 0.0681.
Under “normalised enrichment score”, `R12A` is recorded as 0.74.
`K4A`: “normalised enrichment score” 0.273.
For `L3A`, “normalised enrichment score” read 0.754.
For `K1A`, “normalised enrichment score” read -0.11.

Study 4
Target: Sal-like protein 4, full length isoform B (SALL4, Homo sapiens, UniProt Q9UJQ4-2, residues 1-616)
Method: universal PBM
Form: double-stranded DNA, one strand shown
Medium: in vitro
Tested at: not given
Notes: 8-mer, flanks averaged, mean of replicates
Direction: higher = stronger binding
`ACTACATG` gave an E-score of 0.154.
`GATCATGA` has an E-score of 0.0938.
`GCTCCAAC` gave an E-score of -0.181.
For `GCGCTGCA`, the E-score was -0.141.
For `CAATAAAC`, the E-score was 0.319.
For `GAACAGCC`, the E-score was -0.27.
`CCCTTACG` has an E-score of -0.0958.
For `CTCTAGAA`, the E-score was -0.037.
The E-score of `ACTCAACT` is reported as 0.0251.
With `CCCCCGGC` the E-score was -0.313.
For `ACTCACGG`, the E-score was -0.115.
`ATGTCTCG` has an E-score of -0.0821.
`AAGCGCGG` has an E-score of -0.156.
The E-score of `AATGAATT` is reported as 0.286.
`ATTGTCGC` has an E-score of 0.0599.
With `CTTGTCCC` the E-score was -0.162.
`CCCAGCTC` has an E-score of -0.287.
For `ATAATGAA`, the E-score was 0.362.
`CACATTGA` gave an E-score of 0.213.
For `CTGTGTCA`, the E-score was -0.0553.
`ACATAGGT` has an E-score of 0.17.
The E-score of `ATTTACTA` is reported as 0.223.
`CGTGGGAG` has an E-score of -0.218.
For `CCGGAAAA`, the E-score was -0.0198.

Study 5
Target: UBE2M UBC core domain (UniProt P61081)
Method: yeast two-hybrid
Medium: yeast
Notes: mostly zero background
Reference: not given
Direction: higher = stronger interaction
B1: MID2 RING domain (UniProt Q9UJV3); chain KMETLESELTCPICLELFEDPLLLPCAHSLCFSCAHRILVSSCSSGESIEPITAFQCPTCRYVISLNHRGL
B2: NFX1 RING domain (UniProt Q12986); chain IEQLTTEKYECMVCCELVRVTAPVWSCQSCYHVFHLNCIKKWARSPASQADGQSGWRCPACQNVSAHVPNTY
B3: MKRN3 RING domain (UniProt Q13064); chain FAVQRGMDKVCGICMEVVYEKANPNDRRFGILSNCNHSFCIRCIRRWRSARQFENRIVKSCPQCRVTSELVIPSE
B4: RNF182 RING domain (UniProt Q8N6D2); chain AESQASDELECKICYNRYNLKQRKPKVLECCHRVCAKCLYKIIDFGDSPQGVIVCPFCRFETCLPDDEV
B5: ZNRF4 RING domain (UniProt Q8WWF5); chain VRTFTWHNDLCAICLDEYEEGDQLKILPCSHTYHCKCIDPWFSQAPRRSCPVCKQSVAATEDSF
B6: HLTF RING domain (UniProt Q14527); chain LILSSGSDEECAICLDSLTVPVITHCAHVFCKPCICQVIQNEQPHAKCPLCRNDIHEDNLLE
B7: RNF6 RING domain (UniProt Q9Y252); chain NSIDSELGKICSVCISDYVTGNKLRQLPCMHEFHIHCIDRWLSENCTCPICRQPVLGSNIAN
B8: TRIM41 RING domain (UniProt Q8WV44); chain PVQTLQEEAVCAICLDYFTDPVSIGCGHNFCRVCVTQLWGGEDEEDRDELDREEEEEDGEEE
Target sequence (chain): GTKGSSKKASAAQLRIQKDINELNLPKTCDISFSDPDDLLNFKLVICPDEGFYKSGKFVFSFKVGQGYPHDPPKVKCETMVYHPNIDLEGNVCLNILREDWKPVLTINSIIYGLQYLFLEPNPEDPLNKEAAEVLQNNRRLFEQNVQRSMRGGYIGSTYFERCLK
Under “lacZ reporter activity”, `ASEEEFQFLRCQQCQAEAKCPKLLPCLHTLCSGCLEASGMQCPICQAPWPLGADTP (PML RING domain (UniProt P29590))` is recorded as 0.
`LEALSSDFLACKICLEQLRAPKTLPCLHTYCQDCLAQLADGGRVRCPECRETVPVPPEGV (TRIM56 RING domain (UniProt Q9BRZ2))` — result for “lacZ reporter activity”: 0.
Under “lacZ reporter activity”, `B1 (MID2 RING domain)` is recorded as 0.
Under “lacZ reporter activity”, `B2 (NFX1 RING domain)` is recorded as 0.
Under “lacZ reporter activity”, `B3 (MKRN3 RING domain)` is recorded as 0.
`B4 (RNF182 RING domain)` — result for “lacZ reporter activity”: 0.
Under “lacZ reporter activity”, `B5 (ZNRF4 RING domain)` is recorded as 0.
`B6 (HLTF RING domain)`: “lacZ reporter activity” 0.
Under “lacZ reporter activity”, `B7 (RNF6 RING domain)` is recorded as 0.
For `FAEQPSVKLCCQLCCSVFKDPVITTCGHTFCRRCALKSEKCPVDNVKLTVVVNNI (TRAF7 RING domain (UniProt Q6Q0C0))`, “lacZ reporter activity” read 0.
Under “lacZ reporter activity”, `LVKDFNPYITCYICKGYLIKPTTVTECLHTFCKTCIVQHFEDSNDCPRCGNQVHETNPLE (PCGF5 RING domain (UniProt Q86SE9))` is recorded as 0.
Under “lacZ reporter activity”, `B8 (TRIM41 RING domain)` is recorded as 0.
